# Published values of several laboratories.
# Every numbered part comes from another study and shows a few of its results, in no order.

# Sample 1 — method: universal PBM; molecule type: double-stranded DNA, one strand shown; medium: in vitro; concentration: 600 nM; direction: higher = stronger binding
# Target: Sal-like protein 4, full length isoform A (SALL4, Homo sapiens, UniProt Q9UJQ4, residues 1-1053)
# Chain of UniProt Q9UJQ4 (whole entry, looked up): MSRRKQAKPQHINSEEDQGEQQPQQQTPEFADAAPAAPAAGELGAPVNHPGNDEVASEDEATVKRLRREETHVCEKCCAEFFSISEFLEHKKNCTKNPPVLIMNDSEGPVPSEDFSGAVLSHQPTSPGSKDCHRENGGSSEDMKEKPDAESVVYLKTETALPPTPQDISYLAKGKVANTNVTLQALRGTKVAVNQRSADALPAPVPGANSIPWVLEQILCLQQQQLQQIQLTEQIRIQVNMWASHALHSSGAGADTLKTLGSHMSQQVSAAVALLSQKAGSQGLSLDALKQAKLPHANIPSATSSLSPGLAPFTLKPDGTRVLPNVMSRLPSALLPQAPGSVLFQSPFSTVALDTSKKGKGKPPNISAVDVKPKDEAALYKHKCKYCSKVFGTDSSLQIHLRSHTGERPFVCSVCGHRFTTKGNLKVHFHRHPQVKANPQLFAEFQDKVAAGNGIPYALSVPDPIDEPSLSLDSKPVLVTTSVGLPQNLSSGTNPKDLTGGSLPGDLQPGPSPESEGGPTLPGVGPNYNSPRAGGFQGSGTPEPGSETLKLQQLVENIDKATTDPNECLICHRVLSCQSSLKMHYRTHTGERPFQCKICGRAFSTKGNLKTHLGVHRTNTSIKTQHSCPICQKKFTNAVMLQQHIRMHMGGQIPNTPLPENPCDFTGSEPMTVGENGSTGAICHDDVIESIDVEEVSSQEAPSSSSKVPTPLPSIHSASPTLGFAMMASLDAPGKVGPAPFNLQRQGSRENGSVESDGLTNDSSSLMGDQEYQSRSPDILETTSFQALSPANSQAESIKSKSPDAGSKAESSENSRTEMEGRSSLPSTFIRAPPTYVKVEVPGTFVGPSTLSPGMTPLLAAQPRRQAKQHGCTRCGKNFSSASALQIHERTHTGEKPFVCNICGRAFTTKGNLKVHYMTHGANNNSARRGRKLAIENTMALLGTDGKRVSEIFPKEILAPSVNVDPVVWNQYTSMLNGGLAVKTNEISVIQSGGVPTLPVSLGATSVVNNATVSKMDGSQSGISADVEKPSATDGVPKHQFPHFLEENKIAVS
# Notes: 8-mer, flanks averaged, mean of replicates
Sequence,E-score
AGCCGCCT,-0.322
AAACATTA,0.299
GGAGTACA,-0.0291
TCGTCTCA,-0.0641
AATCACTG,0.0318
CTTGAAGC,0.0169
CAGTTGCG,-0.128
CGGTCGTA,-0.172
CAAAAAAC,0.187
AGACAAAC,-0.0513
GCATATCA,0.236
GAGAACCA,-0.152
TCAGGCCA,-0.0922
CACGAGAG,-0.115
CCGGCAAG,-0.317
TCAAGCGA,0.0634

# Sample 2 — method: protein binding microarray; molecule type: double-stranded DNA, one strand shown; medium: in vitro; concentration: not given; relative to: not given; direction: higher = stronger binding
# Target: Histone acetyltransferase KAT6A, winged helix 1, GST fusion (KAT6A, Homo sapiens, UniProt Q92794, residues 1-85)
# Notes: 8-mer, flanks averaged, mean of 2 arrays, mostly near background
# Target sequence (chain): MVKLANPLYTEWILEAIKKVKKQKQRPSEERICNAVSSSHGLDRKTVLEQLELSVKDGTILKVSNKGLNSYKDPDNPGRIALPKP
Sequence,E-score
ATGTAGGA,-0.144
CCGTGGTC,0.182
ATCGCACG,0.195
GCGTATGA,0.104
TCGAAGCA,-0.246
CGGATGCA,0.00662
GATTCTAC,0.0467
ATGTCGGC,0.203
CGCCCCCG,0.384
AACGCACT,0.138
AGGCCAGC,0.00931
CACAGGTG,-0.12
CAAGTTGC,-0.0538
TCGATTCA,-0.114
GTACAGCA,0.0151
TTTCGAAA,-0.166
CGTTCTAA,-0.00577
ATTCGTTC,-0.218
CCTCAATC,-0.0748
ACCTGATC,-0.0775
ACGGCCAT,0.267
AGGCCCTG,-0.2
AAAGTCTG,-0.282
AATGATCG,0.0737
CCGAGCAG,0.0487

# Sample 3 — method: RNA Bind-n-Seq; molecule type: RNA; medium: in vitro; concentration: 365 nM; relative to: no-protein control; direction: higher = stronger binding
# Target: RNA binding protein fox-1 homolog 2, RRM domain, GST-SBP tag (RBFOX2, Homo sapiens, UniProt O43251-10, residues 100-194)
# Notes: natural RNA segment, single round, ends assumed
# Constant ends, left off below: GGGAGUUCUACAGUCCGACGAUC … UGGAAUUCUCGGGUGCCAA
# Target sequence (chain): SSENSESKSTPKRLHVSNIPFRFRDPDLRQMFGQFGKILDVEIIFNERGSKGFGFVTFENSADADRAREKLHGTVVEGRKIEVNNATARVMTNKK
Sequence,RBNS enrichment (R)
UUGAUGGGGUCUUUCCAUCCUCACCCUUAGACUCUCAACCAAAGAGAAAGGGCUGGAGGAUGCCCCCCACAUACUGCCACUAUUUAUUGUGGGCCCUGGAGGCUCCCUGC,0.606
AAUUACGUCUUGAGUCUGGGAUUAUCCGCAUUGUAUUUAGUGCUUUGUAAUAAAAUAUGUUUUGUAGAACAUUAAGACUUAUAUACAGUUUUAGGGGACAAUUGAGAUGG,0.932
CUGAAAAUGUAAAUUUAUACAUCUAUUCAGGAGUUGGAGUGUUGUGGUUACCUACUGAGUAGGCUGCAGUUUUUGUAUGUUAUGAACAUGAAGUUCAUUAUUUUGUGGUU,2.35
AGAACUUAGGGUGCAGACUGACUUAUUGAUUUCCACCUUGGCAAUGGCAAUAAAGCAUUUUGUAAGGACUGGUUCUCACUGUCUUUAUGGAGAUAGCCCUGGGGGAUAGU,0.769
UCUCCGAAAUGGUGUGAUCGUCUCCUCAUUGAGCAGCGGCUGCCACCGCGCUGUGGGUAGUGUGUGACCGUGGCUGUACUGUAUAGUGAACAUAGUUGGCAUAUCUUUGU,0.611
CCAGGCACUGUUUCUCUGAGUUUUGUUGUUUUGUUUUCUUUGAAGGCUACUGAGCCCAAGCUUCCCGCAUUCCCUUAGUAACAAGAGACAGGACAGAGAGAAGGUCUACU,0.531
CCCCCAAGGACUGCAGGGCUUUCCCAAGCUGAGGCAGGAACGUGAGGCCAGGGAAGAGUGAGCUUCACCCUCAUCCCACGCUGUCCUCCUCAACCCACCAUGCUCAUCAU,0.321
AAGCGGCACUAAUGAAUUGUUCUUAAUCCGGCACGUCUAAUUUGACACGUUUUCAUGAAGGAAUAACUAAGUUAAAGUGAAAAUGGUUGUGAUUUACAGAAAUAAAAUCC,0.244
UAGUGACAUGUACACAGUAGAUGCUCAAGCAGUGUCUGCAAGGACACAAGCUGAGCUUUCUCCUUAUGGGGCAAACCUAUGUCUAACCAGAUACAGACCAAUUAGUUUAG,0.207
CUAUGGACUGAGCCGGCCACUCUCUGGCCGAAGUGGCCGCAGGCUGUGCCCCCGAGCUGCCCCCACCCCCUCACAGGGUCCCUCAGAUUAUAGGUGCCCAGGCUGAGGUG,0.405
CAAGCCGCUUAACCUUGCUAAGCCUCUGUUUUCUCAUAUGUCAAAUGGUGAUAAUAAUGCCUACCUCCCGAGGUUGUUGUAAGAAUUAUAAGCACAAAUGUAUGUAAAGU,0.644
CGUGACACAGAGGCAGCUGUCAGCUGGCACCCACCUCGUCCCCCAGACCACCCUUCUUCCCAAGUGUUGAUUAUGUGACUUCUGAUACAUCCGUUCUCAAACUCCGGUGU,0.55

# Sample 4 — method: RNA Bind-n-Seq; molecule type: RNA; medium: in vitro; concentration: 200 nM; notes: whole 134-nt RNA, ends assumed; added: 150 mM LiCl; relative to: input library; direction: higher = stronger binding; all molecules: 7-deaza-guanosine replaces G
# Target: Fragile X messenger ribonucleoprotein 1, C-terminal low-complexity region (Fmr1, Mus musculus, UniProt P35922)
# Constant ends, left off below: GGGAGUUCUACAGUCCGACGAUC … UGGAAUUCUCGGGUGUCAAGG
Sequence,log2 enrichment
UGGGAGGUAGAUUUUGUUUAUUUUUUUAGCUCAUUUCCAGGGGUGGGAAUUUUUUUUUAAUAUGUGUCAUGAAUAAAGUUGUUUUUGAAA,1.23
GUCCUGUGCUACACAUCGUAUGUACCGAAUCGGGGAAAAAGGGGAAAGGGGAAAGGGGAAAGUAUUAUGUUACGCCGUUCGGAUCUGCAC,1.09
UAACUUUAGAGGAGGAUCUGAUGGAUAUGGCAGUGGACGUGGAUUUGGGGAUGGCUAUAAUGGGUAUGGAGGAGGACCUCGAGGUGGCAA,0.752
CCUCAAGUCCUGUGCUACACAUCGUAUGUACCGAAUCGGGGAAGGAAGGAAGGAAAGUAUUAUGUUACGCCGUUCGGAUCUGCACUUCCA,-1.47
CAAGUCCUGUGCUACACAUCGUAUGUACCGAAUCGGGGAAAAGGAAAAGGAAAAGGAAAGUAUUAUGUUACGCCGUUCGGAUCUGCACUU,-1.31
CCUCAAGUCCUGUGCUACACAUCGUAUGUACCGAAUCGGGAGGGGAGGAGGGAAAGUAUUAUGUUACGCCGUUCGGAUCUGCACUUCCAG,-0.559
AAGUCCUGUGCUACACAUCGUAUGUACCGAAUCGGGUUUGGGAAAGGGUUUUUGGGAAAGUAUUAUGUUACGCCGUUCGGAUCUGCACUU,-1.81
UGGUUCUGGCAUUUAUGACCCUUGUGAAAAAGAAGCCACUGAUGCUAUUGGGCAUCUAGACAGACAGCAACGGGAAGAUAUCACACAGAG,-1.12
ACCAUGCGGGUGGGCAUCUUUGGGAAGUGGGGCAAGGGGGGGAUAGGGAGGGGGGUAACACUUUGGGAACAGGUGGUCCCAGGUCGUUUC,1.53
UAACUCUAGAGGAGGAUCUGAUGGAUAUGGCAGUGGACGUGGAUUUGGGGAUGGCUAUAAUGGGUAUGGAGGAGGACCUGGAGGUGGCAA,0.295
UCAGAAGGUCUUUUAAGUCUGACCACCCAGCUUGUCAAGGAAAAACUCUCCACCUGUGAAGCAGAGGACAUCGCCACCUAUGAGCAGAAU,1.54

# Sample 5 — method: protein-binding microarray; molecule type: double-stranded DNA, one strand shown; medium: in vitro; concentration: 2540 nM top; notes: 60-bp whole probe; added: salmon DNA 0.4 mg/ml; relative to: random background probes; direction: higher = stronger binding; constant ends, left off below: GCCTAGCAC … GTCTTGATTCGCTTGACGCTGCTG
# Target: Interferon regulatory factor 3, full length, phosphomimetic (IRF3, Homo sapiens, UniProt Q14653, residues 1-427, S386D/S396D/S398D/S402D/T404D/S405D)
# Chain of UniProt Q14653 (whole entry, unmodified, looked up): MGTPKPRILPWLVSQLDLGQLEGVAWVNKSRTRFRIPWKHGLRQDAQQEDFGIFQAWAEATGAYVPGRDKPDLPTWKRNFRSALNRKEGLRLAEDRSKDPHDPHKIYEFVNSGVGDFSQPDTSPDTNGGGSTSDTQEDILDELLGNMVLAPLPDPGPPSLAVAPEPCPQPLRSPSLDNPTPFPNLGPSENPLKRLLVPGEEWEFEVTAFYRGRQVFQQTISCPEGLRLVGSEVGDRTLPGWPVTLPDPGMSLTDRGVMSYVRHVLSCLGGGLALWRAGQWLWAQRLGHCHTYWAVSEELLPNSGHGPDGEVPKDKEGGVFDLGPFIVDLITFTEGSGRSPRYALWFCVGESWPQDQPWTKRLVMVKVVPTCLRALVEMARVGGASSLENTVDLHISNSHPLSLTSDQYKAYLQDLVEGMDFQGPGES
Sequence,fitted relative affinity [z-score]
GACGGTATCGACTTTCCGGACGTGCTA,1.73
TCCCCTCTCATTCCAATTCTGTGCTAG,1.29
TCAATTTCAGTTTTCTTACTGTGCTAG,4.97
GACGATTTCCGTCTCGAGACGTGCTAG,3.68
GACGATTTCAGTTCCGGGACGTGCTAG,3.28
GATGATTTCGGGACTGGAGACGTGCTA,1.28
GACGATTTCAGTATCGTGACGTGCTAG,2.22
TTAGGTCTCCTTCCCCTTTAGTGCTAG,1.59
TGTTATTAAAATTTAATGGGGTGCTAG,0.137
GACGGGCTGGGTCTCGGGACGTGCTAG,-1.11
GACGATATCAGATTGGAGACGTGCTAG,0.839
AATCATTTTAGTTTTCATTAGTGCTAG,3.07
TCAGATTTCTTCCCTGTGACTGTGCTA,0.525
TTAGACATCAGACTGGATTAGTGCTAG,-0.406
TAAATTCTGAAAATGGAAACGTGCTAG,0.856
CTAGGTTTCGGTTTCGGTTAGTGCTAG,11.6
TCATTTTTTTTTTTGGAACTGTGCTAG,1.34
TTAGGTATCGGGACTGGATTAGTGCTA,1.56
TGTTTTAATTTTCTCTTTGGGTGCTAG,3.05
TCAACTCTTCTTTTGCTACTGTGCTAG,0.739

# Repeated from above (sample 5):
Sequence,fitted relative affinity [z-score]
GACGATTTCAGTTCCGGGACGTGCTAG,3.28
GATGATTTCGGGACTGGAGACGTGCTA,1.28
GACGATTTCAGTATCGTGACGTGCTAG,2.22
TTAGGTCTCCTTCCCCTTTAGTGCTAG,1.59
TGTTATTAAAATTTAATGGGGTGCTAG,0.137
GACGGGCTGGGTCTCGGGACGTGCTAG,-1.11
GACGATATCAGATTGGAGACGTGCTAG,0.839
AATCATTTTAGTTTTCATTAGTGCTAG,3.07
TCAGATTTCTTCCCTGTGACTGTGCTA,0.525
TTAGACATCAGACTGGATTAGTGCTAG,-0.406
TAAATTCTGAAAATGGAAACGTGCTAG,0.856
